Assay results gathered from unrelated publications.
Protocols differ between the studies behind these lines.
Target: Protein kinase C delta type (PRKCD, Homo sapiens, UniProt Q05655)

| SMILES | assay | conditions | scale | endpoint | value |
| --- | --- | --- | --- | --- | --- |
| CC(C)=CC1OC(C)(C)C2C=C3C(=O)C(Cl)=CC(O)C3C3C(O)C4OC4C(=O)C132 (stereo not shown) | cell-free assay, competition with immobilised ligand | 10 µM |  | remaining binding | 75% |
| CCN1CCN(Cc2ccc(NC(=O)c3ccc(C)c(NC(=O)c4cncc(-c5cccs5)c4)c3)cc2C(F)(F)F)CC1 | binding, competition with immobilised ligand | 1 µM |  | remaining binding | 14% |
| Cc1c[nH]c2nccc(-c3ccc(C(=O)N[C@@H]4c5c(F)cc(C(F)F)cc5C[C@@H]4O)cn3)c12 | binding, competition with immobilised ligand | 3 µM |  | remaining binding | 14% |
| COc1c(OCCCN2CCOCC2)ccc2c1N=C(NC(=O)c1cnc(N)nc1)N1CCN=C21 | kinase activity, inhibitor | 1 µM | relative to: untreated control | remaining activity | 109% |
| O=C=[N][Ru-4]123([n]4c5ccc(O)cc5c5c6c(c7cc(F)c[n+]1c7c54)C(=O)NC6=O)[S+]1CC[S+]2CC[S+]3CC1 (stereo not shown) | enzyme activity | 100 nM, human enzyme, with: 10 µM ATP | relative to: untreated | remaining activity | 88% |
| Nc1ncc(-c2cc(-c3cnn(CC(F)(F)F)c3)ncc2F)nc1C(=O)NC1CNCC(F)C1 (stereo not shown) | enzyme activity | 1 µM | relative to: DMSO control | remaining activity | 86% |
| Cc1cnc2nc1Nc1cccc(c1)COC/C=C/COCc1cc(ccc1OCCN1CCOCC1)N2 | binding | 0.1 µM |  | remaining binding | 100% |
| CN1CC[C@@H](COc2cnc(C#N)cc2-c2ccn3nc(NC(=O)C4CC4)cc3c2)C1 | enzyme activity, inhibitor | 1 µM |  | inhibition | -1% |
| COc1c(Cl)cccc1Nc1c(-c2ccncc2C#C[C@@]2(C)CCCN2C(=O)/C=C/CN(C)C)[nH]c2c1C(=O)NCC2 | cell-free assay, competition with immobilised ligand | 3 µM |  | remaining binding | 69% |
| CCn1cc(C(=O)O)c(=O)c2c(N)c(F)c(NC3CCCCC3)cc21 | kinase activity | 0.1 µM, with: ATP at Km |  | inhibition | -2.2% |
| C=CC(=O)N1CCc2ccc(-n3c(=O)ccc4cnc5ccc(-c6cnn(C)c6)cc5c43)cc21 | KINOMEscan | 1 µM | relative to: DMSO control | remaining binding | 100% |
| C=CC(=O)N1CCCC(n2c(=O)c3ncccc3n(Cc3ccc(Oc4ccccc4)cc3)c2=O)C1 (stereo not shown) | cell-free assay, competition with immobilised ligand | 1 µM |  | remaining binding | 84% |
| NC(=O)C[C@H]1CCc2sc3ncnc(O[C@H]4CC[C@H](N5CCOCC5)CC4)c3c21 | enzyme activity, inhibitor | 10 µM |  | inhibition | 5% |

Some of these lines once more:
| SMILES | assay | conditions | scale | endpoint | value |
| --- | --- | --- | --- | --- | --- |
| C=CC(=O)N1CCc2ccc(-n3c(=O)ccc4cnc5ccc(-c6cnn(C)c6)cc5c43)cc21 | KINOMEscan | 1 µM | relative to: DMSO control | remaining binding | 100% |
